Measurements of several laboratories.
Compare with care: the assays were run in different laboratories. Values joined by “and” are separate records of one study, mostly repeats; a detail may differ. ± marks the error that the study gave.
HDAC1: Histone deacetylase 1 (HDAC1, Homo sapiens, UniProt Q13547)
UniProt Q13547, sequence (whole entry, looked up): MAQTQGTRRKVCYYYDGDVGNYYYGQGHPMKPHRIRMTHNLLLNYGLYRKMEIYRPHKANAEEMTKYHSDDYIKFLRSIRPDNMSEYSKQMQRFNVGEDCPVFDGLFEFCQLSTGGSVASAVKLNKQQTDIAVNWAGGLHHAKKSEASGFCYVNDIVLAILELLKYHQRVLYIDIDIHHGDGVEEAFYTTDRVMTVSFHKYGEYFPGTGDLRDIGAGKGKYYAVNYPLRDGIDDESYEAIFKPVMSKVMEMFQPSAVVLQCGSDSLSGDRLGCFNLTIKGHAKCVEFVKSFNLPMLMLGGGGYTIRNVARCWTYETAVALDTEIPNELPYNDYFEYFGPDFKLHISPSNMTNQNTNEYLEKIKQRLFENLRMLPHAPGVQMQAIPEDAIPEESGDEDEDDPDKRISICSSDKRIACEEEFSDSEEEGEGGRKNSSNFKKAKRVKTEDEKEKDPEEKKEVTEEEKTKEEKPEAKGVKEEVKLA
Grik2: Glutamate receptor ionotropic, kainate 2 (Grik2, Rattus norvegicus, UniProt P42260)
UniProt P42260, sequence (whole entry, looked up): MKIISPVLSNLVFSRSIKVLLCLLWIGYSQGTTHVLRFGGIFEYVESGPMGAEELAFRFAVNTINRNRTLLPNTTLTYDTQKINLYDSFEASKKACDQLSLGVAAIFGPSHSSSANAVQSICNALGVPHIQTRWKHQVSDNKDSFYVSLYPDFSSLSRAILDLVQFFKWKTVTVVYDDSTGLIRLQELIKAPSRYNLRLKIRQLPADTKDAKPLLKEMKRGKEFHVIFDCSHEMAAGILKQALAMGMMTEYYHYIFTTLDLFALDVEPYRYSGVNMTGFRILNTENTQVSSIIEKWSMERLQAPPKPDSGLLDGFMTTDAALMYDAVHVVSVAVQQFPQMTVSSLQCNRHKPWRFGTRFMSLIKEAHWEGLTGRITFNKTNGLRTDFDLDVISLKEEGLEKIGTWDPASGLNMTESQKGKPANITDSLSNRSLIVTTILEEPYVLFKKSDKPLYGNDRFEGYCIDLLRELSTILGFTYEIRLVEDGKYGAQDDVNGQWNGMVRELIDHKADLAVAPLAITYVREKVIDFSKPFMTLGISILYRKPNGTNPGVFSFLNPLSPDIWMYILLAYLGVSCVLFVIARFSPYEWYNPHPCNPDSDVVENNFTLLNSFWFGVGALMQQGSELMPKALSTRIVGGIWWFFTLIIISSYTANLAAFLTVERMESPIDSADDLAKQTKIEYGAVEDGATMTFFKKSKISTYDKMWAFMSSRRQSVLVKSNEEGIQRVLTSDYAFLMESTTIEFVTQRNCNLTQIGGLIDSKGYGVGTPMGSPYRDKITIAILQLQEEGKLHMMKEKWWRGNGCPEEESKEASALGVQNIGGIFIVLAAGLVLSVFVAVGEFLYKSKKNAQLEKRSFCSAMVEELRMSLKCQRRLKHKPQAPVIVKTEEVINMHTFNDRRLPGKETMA
EGLN1: Egl nine homolog 1 (EGLN1, Homo sapiens, UniProt Q9GZT9)
UniProt Q9GZT9, sequence (whole entry, looked up): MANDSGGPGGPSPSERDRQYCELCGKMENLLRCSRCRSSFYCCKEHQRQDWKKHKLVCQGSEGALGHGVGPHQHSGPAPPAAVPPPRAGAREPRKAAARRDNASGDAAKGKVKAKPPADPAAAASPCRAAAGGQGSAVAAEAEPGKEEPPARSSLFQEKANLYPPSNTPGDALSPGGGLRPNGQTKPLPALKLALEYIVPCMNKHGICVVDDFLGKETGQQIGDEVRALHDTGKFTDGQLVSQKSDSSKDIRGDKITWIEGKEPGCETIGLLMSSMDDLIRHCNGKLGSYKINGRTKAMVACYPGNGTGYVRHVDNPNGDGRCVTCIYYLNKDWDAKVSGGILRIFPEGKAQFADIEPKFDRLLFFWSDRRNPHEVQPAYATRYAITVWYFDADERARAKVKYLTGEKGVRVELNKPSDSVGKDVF
BACE1: Beta-secretase 1 (BACE1, Homo sapiens, UniProt P56817)
UniProt P56817, sequence (whole entry, looked up): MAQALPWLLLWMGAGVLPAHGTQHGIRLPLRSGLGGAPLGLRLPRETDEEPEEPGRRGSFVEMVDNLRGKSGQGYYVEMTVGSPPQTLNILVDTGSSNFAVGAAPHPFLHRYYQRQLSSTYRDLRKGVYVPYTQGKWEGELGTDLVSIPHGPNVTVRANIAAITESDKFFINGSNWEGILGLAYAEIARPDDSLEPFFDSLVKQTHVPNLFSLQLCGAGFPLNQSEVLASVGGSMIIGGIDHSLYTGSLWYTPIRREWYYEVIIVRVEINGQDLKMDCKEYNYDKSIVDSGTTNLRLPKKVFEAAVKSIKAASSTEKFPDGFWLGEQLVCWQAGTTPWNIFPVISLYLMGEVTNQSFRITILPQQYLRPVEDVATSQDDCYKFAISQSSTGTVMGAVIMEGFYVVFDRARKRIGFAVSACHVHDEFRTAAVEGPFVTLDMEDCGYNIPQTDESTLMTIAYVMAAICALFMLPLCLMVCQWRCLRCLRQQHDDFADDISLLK
Kir3.1/Kir3.2: Kir3.1/Kir3.2 (Homo sapiens, UniProt P48051+P48549)
UniProt P48549, sequence (whole entry, looked up): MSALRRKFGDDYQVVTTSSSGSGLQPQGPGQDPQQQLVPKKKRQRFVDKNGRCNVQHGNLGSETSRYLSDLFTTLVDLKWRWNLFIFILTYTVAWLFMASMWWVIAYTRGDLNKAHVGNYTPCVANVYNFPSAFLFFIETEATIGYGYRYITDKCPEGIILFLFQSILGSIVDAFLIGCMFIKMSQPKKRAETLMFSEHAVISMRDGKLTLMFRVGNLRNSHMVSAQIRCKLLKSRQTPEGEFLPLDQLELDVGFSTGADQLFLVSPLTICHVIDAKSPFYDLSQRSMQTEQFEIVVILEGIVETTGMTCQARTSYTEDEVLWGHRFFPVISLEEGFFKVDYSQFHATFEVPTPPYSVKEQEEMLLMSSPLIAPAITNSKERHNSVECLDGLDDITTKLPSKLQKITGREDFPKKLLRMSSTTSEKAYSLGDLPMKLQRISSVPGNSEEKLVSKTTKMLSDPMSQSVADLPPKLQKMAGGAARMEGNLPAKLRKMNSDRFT
UniProt P48051, sequence (whole entry, looked up): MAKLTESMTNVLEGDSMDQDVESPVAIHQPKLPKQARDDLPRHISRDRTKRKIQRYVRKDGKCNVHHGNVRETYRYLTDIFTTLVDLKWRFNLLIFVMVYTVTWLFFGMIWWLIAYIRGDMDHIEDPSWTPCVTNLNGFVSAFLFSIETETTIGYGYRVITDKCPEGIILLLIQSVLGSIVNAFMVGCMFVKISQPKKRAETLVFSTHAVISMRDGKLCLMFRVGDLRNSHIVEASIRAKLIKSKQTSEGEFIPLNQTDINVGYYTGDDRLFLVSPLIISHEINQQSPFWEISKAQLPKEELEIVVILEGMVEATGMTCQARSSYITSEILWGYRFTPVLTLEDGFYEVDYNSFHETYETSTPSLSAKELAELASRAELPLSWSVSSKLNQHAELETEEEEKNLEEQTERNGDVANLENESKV
Ephx2: Bifunctional epoxide hydrolase 2 (Ephx2, Mus musculus, UniProt P34914)
UniProt P34914, sequence (whole entry, looked up): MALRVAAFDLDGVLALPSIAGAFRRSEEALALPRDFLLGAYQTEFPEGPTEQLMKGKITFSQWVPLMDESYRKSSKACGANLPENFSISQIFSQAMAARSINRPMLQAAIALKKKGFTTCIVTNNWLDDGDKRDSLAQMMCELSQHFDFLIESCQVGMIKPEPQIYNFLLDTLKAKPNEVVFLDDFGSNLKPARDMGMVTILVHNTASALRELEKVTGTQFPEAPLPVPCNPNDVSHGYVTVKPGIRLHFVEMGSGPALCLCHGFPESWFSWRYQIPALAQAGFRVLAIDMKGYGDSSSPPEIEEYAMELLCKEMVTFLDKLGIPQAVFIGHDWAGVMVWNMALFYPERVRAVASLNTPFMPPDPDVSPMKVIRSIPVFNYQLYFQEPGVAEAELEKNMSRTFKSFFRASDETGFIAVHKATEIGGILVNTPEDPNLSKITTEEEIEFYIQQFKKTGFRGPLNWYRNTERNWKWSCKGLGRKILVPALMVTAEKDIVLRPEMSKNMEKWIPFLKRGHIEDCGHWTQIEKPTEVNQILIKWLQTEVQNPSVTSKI
UniProt P37231, sequence (whole entry, looked up): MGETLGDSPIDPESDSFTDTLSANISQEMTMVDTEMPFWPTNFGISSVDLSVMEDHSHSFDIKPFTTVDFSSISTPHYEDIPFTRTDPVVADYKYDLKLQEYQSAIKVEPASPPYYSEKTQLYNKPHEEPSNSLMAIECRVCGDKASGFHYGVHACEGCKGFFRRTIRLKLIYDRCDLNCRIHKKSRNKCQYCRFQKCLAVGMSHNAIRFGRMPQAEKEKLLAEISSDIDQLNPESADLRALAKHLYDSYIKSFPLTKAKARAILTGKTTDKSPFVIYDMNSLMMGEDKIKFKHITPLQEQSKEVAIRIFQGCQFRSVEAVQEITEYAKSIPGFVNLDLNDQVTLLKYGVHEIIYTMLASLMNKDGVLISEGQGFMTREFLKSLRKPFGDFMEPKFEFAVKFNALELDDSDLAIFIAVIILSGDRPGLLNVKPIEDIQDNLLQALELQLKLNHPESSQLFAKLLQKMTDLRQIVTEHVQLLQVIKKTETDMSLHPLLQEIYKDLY
UniProt P31391, sequence (whole entry, looked up): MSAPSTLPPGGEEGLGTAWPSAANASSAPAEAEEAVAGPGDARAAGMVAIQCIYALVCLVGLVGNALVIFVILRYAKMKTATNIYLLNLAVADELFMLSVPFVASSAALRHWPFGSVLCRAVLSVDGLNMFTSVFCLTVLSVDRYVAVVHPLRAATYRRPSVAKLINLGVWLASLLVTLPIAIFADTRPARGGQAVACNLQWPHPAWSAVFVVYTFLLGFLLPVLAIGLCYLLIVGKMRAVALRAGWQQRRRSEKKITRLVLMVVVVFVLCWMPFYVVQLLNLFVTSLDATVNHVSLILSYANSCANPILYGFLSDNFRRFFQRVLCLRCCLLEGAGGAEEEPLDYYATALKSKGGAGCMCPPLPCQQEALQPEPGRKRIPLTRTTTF
UniProt P20618, sequence (whole entry, looked up): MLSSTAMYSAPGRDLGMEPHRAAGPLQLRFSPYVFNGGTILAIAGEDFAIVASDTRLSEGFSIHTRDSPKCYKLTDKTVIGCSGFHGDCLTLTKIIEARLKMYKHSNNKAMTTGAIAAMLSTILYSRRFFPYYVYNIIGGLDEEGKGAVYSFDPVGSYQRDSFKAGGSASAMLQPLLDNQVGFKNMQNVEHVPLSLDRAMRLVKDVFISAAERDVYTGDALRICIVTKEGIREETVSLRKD

Substance	target	test	test system	conditions	IC50
O=C(NO)c1ccc(Cn2c(C(F)(F)F)nc3ccccc32)c(F)c1	HDAC1	enzyme activity, inhibitor	–	–	24.6 µM
COc1ccc(-n2c(/C=C/c3ccccc3[N+](=O)[O-])nc3ccccc3c2=O)cc1	Grik2	ion current, inhibitor, two-electrode voltage clamp	Xenopus oocytes	concanavalin A pretreatment, together with: 100 µM glutamate	> 300 µM
CCCCCCCCCCCCCC(=S)NCCCCC(NC(=O)OCc1ccccc1)C(=O)Nc1ccccc1 (stereo not shown)	SIRT6 (Homo sapiens, UniProt Q8N6T7)	enzyme activity, inhibitor	–	with preincubation	> 200 µM
CN(C)c1ccc(-n2cc(Cn3cccc(O)c3=S)nn2)cc1	HDAC1	enzyme activity, inhibitor, SAMDI mass spectrometry	–	–	> 10 µM
CCCCCCCCN1CC2=C(C1=O)C(c1ccc(O)cc1)NC(=O)N2 (stereo not shown)	ALPI (Bos taurus, UniProt P19111)	enzyme activity, inhibitor, absorbance	–	pH 9.5	8.23 µM
O=C(O)c1ccc(-n2c(/C=C/c3ccccc3[N+](=O)[O-])nc3ccccc3c2=O)cc1	Grik2	ion current, inhibitor, two-electrode voltage clamp	Xenopus oocytes	concanavalin A pretreatment, together with: 100 µM glutamate	> 300 µM
COc1cc(/C=C/C(C)=N/O)ccc1OCC(=O)Nc1cccc(C)c1	PPARG (Homo sapiens, UniProt P37231)	ligand displacement, TR-FRET	–	–	9.24 µM
O=C(O)/C=C\C(=O)NNC(=O)c1ccccn1	EGLN1	inhibitor, AlphaScreen	–	bimodal curve, rough estimate, together with: 2 µM 2-oxoglutarate	> 300 µM
[H]/N=C(\N/C(=N/[H])NCCCCCCNC(=N)NC(=N)Nc1ccc(Cl)cc1)Nc1ccc(Cl)cc1	enhanced intracellular survival protein (Kocuria rhizophila, UniProt A0AAX2SEI6)	–	–	–	17 ± 4 µM
O=C(OC(C(F)(F)F)C(F)(F)F)N1Cc2ccc(OCCN3CCCCC3)cc2C1	ABHD6 (Homo sapiens, UniProt Q9BV23)	enzyme activity, inhibitor, fluorescence substrate	–	–	0.0119 ± 0.0011 µM
Nc1nc(=O)c2c([nH]1)NCC(CNc1ccc(C(=O)N[C@@H](CCC(=O)O)C(=O)O)cc1)N2C=O (mixture of isomers)	thyX (Mycobacterium tuberculosis, UniProt P9WG57)	NADPH oxidase activity, inhibitor	–	together with: 200 µM NADPH	29 ± 6 µM
CC(C)NCc1ccc(C[C@@H]2NC(=O)[C@@H](N(C)C(=O)c3ccc4ccccc4c3)NC(=O)[C@H](Cc3ccccc3)NC(=O)[C@@H](N)CSSC[C@@H](C(N)=O)NC(=O)[C@H](Cc3ccc(O)cc3)NC2=O)cc1	SSTR4 (Homo sapiens, UniProt P31391)	ligand displacement, radioligand	–	cell membranes	0.695 µM and 0.481 µM
CC(=O)CC(c1ccccc1)c1c(O)c2ccccc2oc1=O (stereo not shown)	Vitamin K epoxide reductase complex subunit 1-like protein 1 (Homo sapiens, UniProt Q8N0U8)	enzyme activity, inhibitor, fluorometric	–	DDM detergent, together with: GSH reductant, 250 nM enzyme	> 0.25 µM
C=C(C)[C@@H](CC=C(C)C)C[C@@]12C[C@@H](CC=C(C)C)C(C)(C)[C@@](CC=C(C)C)(C(=O)C(C(=O)c3ccc(O)c(O)c3)=C1O)C2=O	EP300 (Homo sapiens, UniProt Q09472)	enzyme activity, inhibitor, mobility shift	–	–	~60 µM
Cc1cc2ccc(OC(=O)c3ccc(N=C(N)N)cc3)cc2oc1=O	BACE1	inhibitor, FRET	–	pH 4.5	1.5 ± 0.2 µM
O=C(NNC(=O)c1ccc(CNS(=O)(=O)c2ccc(F)c(Cl)c2)cc1)c1ccccc1	Glutamate NMDA receptor; Grin1/Grin2a (Grin1/Grin2a, Rattus norvegicus, UniProt P35439+Q00959, L777A)	ion current, two-electrode voltage clamp	–	oocytes	0.072 µM
N=c1n(Cc2ccccc2)c2ccccc2n1CC(O)COc1cc(F)cc(F)c1 (stereo not shown)	Kir3.1/Kir3.2	ion flux	–	–	1.4 µM
NCCCCCO[C@H]1O[C@H](COS(=O)(=O)O)[C@@H](O[C@@H]2O[C@@H](C(=O)O)[C@@H](O[C@H]3O[C@H](COS(=O)(=O)O)[C@@H](O[C@@H]4O[C@H](C(=O)O)[C@@H](O)[C@H](O)[C@H]4O)[C@H](O)[C@H]3NS(=O)(=O)O)[C@H](O)[C@H]2O)[C@H](O)[C@H]1NS(=O)(=O)O	BACE1	enzyme activity, inhibitor, FRET	–	pH 4.5	195 µM
CS(=O)(=O)c1ccc(C(=O)C2C(=O)C3CCC(C3)C2=O)c(Cl)c1 (stereo not shown)	HPD (Arabidopsis thaliana, UniProt P93836)	enzyme activity, inhibitor, absorbance	–	–	0.0469 µM
O=c1oc2c(O)c(O)cc3c(=O)oc4c(O)c(O)cc1c4c23	Ribonuclease L (Sus scrofa, UniProt A5H025)	RNase L activity, inhibitor	–	–	0.07308 ± 0.00016 µM
COc1ccccc1OCC(O)Cn1c(=N)n(Cc2ccccc2)c2ccccc21 (stereo not shown)	Kir3.1/Kir3.2	ion flux	–	–	5.13 µM
Cc1ncc(C(=O)Nc2ccc(CN3CCN(C)CC3)c(C(F)(F)F)c2)cc1C#Cc1cnc(N)c2ncccc12	Breakpoint cluster region protein/Tyrosine-protein kinase ABL1 (Homo sapiens, UniProt P00519+P11274)	–	–	–	0.0109 ± 0.0011 µM
OC(c1cc(-c2ccc(Cl)cc2)nc2ccccc12)C1CCCCN1 (stereo not shown)	BACE1	inhibitor, FRET	–	pH 4.5	21.3 ± 6.4 µM
Nc1ncnc2c1ncn2[C@@H]1O[C@H](COP(=O)(O)OP(=O)(O)C(Cl)(Cl)P(=O)(O)O)[C@@H](O)[C@H]1O	PDGFRA (Homo sapiens, UniProt P16234)	enzyme activity, inhibitor, HotSpot kinase	–	together with: ATP 1 µM	0.01 µM
O=c1cc(N2CCOCC2)oc2c(OCc3ccccc3)cccc12	PIK3CA (Homo sapiens, UniProt P42336, H855E)	enzyme activity, inhibitor	–	–	2.3 µM
COC(=O)CC[C@@H](C)[C@H]1CC[C@H]2[C@@H]3CC[C@@H]4C[C@H](N)CC[C@]4(C)[C@H]3CC[C@]12C	human 20S proteasome	chymotrypsin-like activity, inhibitor	–	together with: PA28	> 10 µM

Substance	target	test	test system	conditions	IC50
CCCCC/C=C\C/C=C\C/C=C\C/C=C\CCCC(=O)O	CES1 (Homo sapiens, UniProt P23141)	enzyme activity, inhibitor, fluorescence	–	–	~10 µM
CCN1/C(=C/c2ccc3ccccc3[n+]2CC)C=Cc2ccccc21	Equilibrative nucleoside transporter 4 (Slc29a4, Mus musculus, UniProt Q8R139)	–	–	pH 7.4	0.591 ± 0.054 µM
CN1CCN(CCCN2c3ccccc3Sc3ccc(C(F)(F)F)cc32)CC1	USP8 (Homo sapiens, UniProt P40818)	–	–	–	> 114 µM
Cc1cccc(-c2nnc3sc(Cc4ccc(F)cc4)nn23)c1	PIM1 (Homo sapiens, UniProt P11309)	kinase activity, inhibitor, ADP-Glo	–	–	0.92 ± 0.97 µM
O=C(Nc1cc(C(=O)Nc2ccc(S(=O)(=O)O)cc2S(=O)(=O)O)cc(C(=O)Nc2ccc(S(=O)(=O)O)cc2S(=O)(=O)O)c1)Nc1cc(C(=O)Nc2ccc(S(=O)(=O)O)cc2S(=O)(=O)O)cc(C(=O)Nc2ccc(S(=O)(=O)O)cc2S(=O)(=O)O)c1	Methyl-CpG-binding domain protein 2, MBD domain (MBD2, Homo sapiens, UniProt Q9UBB5)	methylated DNA binding, inhibitor, TR-FRET	–	together with: methylated FAM oligonucleotide	0.29 µM
COC(=O)C(Cc1ccc(CCCC(=O)NCCC(=O)Nc2ccc3nc(C)sc3c2)cc1)C(=O)OC	LDHA (Homo sapiens, UniProt P00338)	inhibitor, NADH fluorescence	–	pyruvate competition, together with: 150 µM NADH, 200 µM pyruvate	> 200 µM
NS(=O)(=O)c1ccc(N2N=C(C(F)(F)F)C[C@H]2c2ccc(F)cc2F)cc1	Cyclooxygenase-2 (Canis lupus familiaris, UniProt Q8SPQ9)	PGE2 formation, inhibitor	dog whole blood	24 h, 37 °C, together with: LPS	6.5 µM
O=C1O[C@H]([C@@H](O)CO)C(O)=C1OP(=O)(O)O	mushroom tyrosinase	inhibitor	–	together with: L-tyrosine	246 ± 34.7 µM
CSc1nnc2[nH]nc(C)c2n1	deoD (Escherichia coli, UniProt P0ABP8)	enzyme activity, inhibitor	–	–	~40 µM
N#Cc1ccc(F)c(OCC(O)Cn2c(=N)n(Cc3ccccc3)c3ccccc32)c1 (stereo not shown)	Kir3.1/Kir3.2	ion flux	–	–	1.4 µM
CCC(=O)c1ccc(Oc2ccc(Cl)cc2Cl)c(O)c1	ENR (Toxoplasma gondii, UniProt Q6UCJ9)	enzyme activity, inhibitor, absorbance	–	–	0.38 µM
CCN(c1ccc(Cl)cc1)S(=O)(=O)C1CC2OC1C(c1ccc(O)cc1)=C2c1ccc(O)cc1 (stereo not shown)	ESR2 (Homo sapiens, UniProt Q92731)	reporter gene, antagonist, luciferase	–	–	0.16 µM
CNCCC[C@@]1(c2ccc(F)cc2)OCc2cc(C#N)ccc21	Slc6a4 (Mus musculus, UniProt Q60857)	–	–	–	0.02 µM
CDK1/2 inhibitor III	STK24 (Homo sapiens, UniProt Q9Y6E0)	kinase activity, inhibitor	–	together with: myelin basic protein 10 µM, ATP 10 µM	0.014 µM
CC12CC3CC(C)(C1)CC(Nc1c(Nc4ccc(C(=O)N5CCC[C@H](C(=O)NCCCCCCC(=O)NO)C5)cc4)c(=O)c1=O)(C3)C2	Ephx2	enzyme activity, inhibitor, fluorescence	–	–	23.2 µM
C[C@@H](CC(=O)NCc1cccc2ccccc12)NC(=O)C[C@H](CC(=O)NC(C)(C)C)NC(=O)CCc1ccccc1	Proteasome component C5/PSMB8 (Homo sapiens, UniProt P20618+P28062)	chymotrypsin-like activity, inhibitor	–	together with: ac-ANW-AMC	> 100 µM
CC(C)C[C@H](NC(=O)[C@H](Cc1ccccc1)NC(=O)c1cnccn1)B(O)O	Proteasome subunits (Trypanosoma cruzi, UniProt Q4CU77+Q4D8U7)	chymotrypsin-like activity, inhibitor	–	wild-type proteasome	0.091 ± 0.0075 µM
C[C@]12C[C@@H]3C[C@](C)(C1)C[C@@](NC(=O)Nc1ccc(C(=O)N4CCC[C@H](C(=O)NCCCCCCC(=O)NO)C4)cc1F)(C3)C2	Ephx2	enzyme activity, inhibitor, fluorescence	–	–	0.001 µM
CC(C)C[C@H](NC(=O)[C@H](CC(C)C)NC(=O)[C@@H](Cc1c[nH]c2ccccc12)NC(=O)[C@H](Cc1ccccc1)NC(=O)[C@@H](Cc1c[nH]c2ccccc12)NC(=O)[C@H](CCC(N)=O)NC(=O)[C@H](CCC(N)=O)NC(=O)[C@@H]1CCCN1C(=O)[C@H](CCCCN)NC(=O)[C@@H]1CCCN1C(=O)[C@H](N)CCCN=C(N)N)C(N)=O	NMBR (Homo sapiens, UniProt P28336)	inositol phosphate generation, antagonist	Balb 3T3 expressing NMBR	together with: neuromedin B 1 nM	1.18 ± 0.098 µM
O=C(O[C@@H]1Cc2c(O)cc(O)cc2O[C@@H]1c1cc(O)c(O)c(O)c1-c1c([C@H]2Oc3cc(O)cc(O)c3C[C@H]2OC(=O)c2cc(O)c(O)c(O)c2)cc(O)c(O)c1O)c1cc(O)c(O)c(O)c1	mRNA triphosphatase Cet1 (Trypanosoma brucei brucei, UniProt Q582T2)	enzyme activity, Transcreener ADP fluorescence polarization	–	3 h, together with: 50 µM ATP	0.03 µM
O=[N+]([O-])c1ccc(O)c(O)c1	EGLN1	ODDD peptide hydroxylation, inhibitor, MALDI-TOF MS	–	pH 7.00, 37.0 °C, together with: 2-oxoglutarate 10 µM	6 µM
COC(=O)c1cc(CN2CCN(C(=N)N)CC2)cc(C(=O)N2CCN(C(=O)c3ccc(C(=N)N)cc3)CC2)c1	KDM1A (Homo sapiens, UniProt O60341)	enzyme activity, inhibitor	–	–	1 to 5 µM
Fc1ccc(F)c(F)c1	Neuronal acetylcholine receptor; alpha4/beta2 (Homo sapiens, UniProt P17787+P43681)	ion current, inhibitor, two-electrode voltage clamp	Xenopus oocytes	together with: ACh 1 mM	0.0022 atm
micropeptin 982	Neutrophil elastase (ELANE, Homo sapiens, UniProt P08246)	inhibitor	–	–	1.4 ± 0.15 µM
CC12CC3CC(C)(C1)CC(Nc1c(Nc4ccc(CN5CCC[C@H](C(=O)NCCCCCCC(=O)NO)C5)cc4F)c(=O)c1=O)(C3)C2	Ephx2	enzyme activity, inhibitor, fluorescence	–	–	9.8 µM
CCCCC=O	Liver carboxylesterase (Sus scrofa, UniProt Q29550)	enzyme activity, inhibitor	–	with preincubation	1370 µM

Some of these lines once more:
Substance	target	test	test system	conditions	IC50
CCCCC/C=C\C/C=C\C/C=C\C/C=C\CCCC(=O)O	CES1 (Homo sapiens, UniProt P23141)	enzyme activity, inhibitor, fluorescence	–	–	~10 µM
CC(=O)CC(c1ccccc1)c1c(O)c2ccccc2oc1=O (stereo not shown)	Vitamin K epoxide reductase complex subunit 1-like protein 1 (Homo sapiens, UniProt Q8N0U8)	enzyme activity, inhibitor, fluorometric	–	DDM detergent, together with: GSH reductant, 250 nM enzyme	> 0.25 µM
O=C(O[C@@H]1Cc2c(O)cc(O)cc2O[C@@H]1c1cc(O)c(O)c(O)c1-c1c([C@H]2Oc3cc(O)cc(O)c3C[C@H]2OC(=O)c2cc(O)c(O)c(O)c2)cc(O)c(O)c1O)c1cc(O)c(O)c(O)c1	mRNA triphosphatase Cet1 (Trypanosoma brucei brucei, UniProt Q582T2)	enzyme activity, Transcreener ADP fluorescence polarization	–	3 h, together with: 50 µM ATP	0.03 µM
CCCCC=O	Liver carboxylesterase (Sus scrofa, UniProt Q29550)	enzyme activity, inhibitor	–	with preincubation	1370 µM
O=c1oc2c(O)c(O)cc3c(=O)oc4c(O)c(O)cc1c4c23	Ribonuclease L (Sus scrofa, UniProt A5H025)	RNase L activity, inhibitor	–	–	0.07308 ± 0.00016 µM
